Published values from different studies.
Numbered parts are unrelated; each lists some results of a single study. Values joined by “and” are separate records of one study, mostly repeats; a detail may differ.

Study 1 — host: human; sample: microsomes or S9; concentration: 2 µM; time: 0.5 h
SMILES | remaining compound [%]
CCCc1ccc(-c2ccc(/C=C/C(=O)O)cc2)nc1 | 11.3
Cc1cc2c(cc1CNC1(c3ccccc3F)CCCC1)OCO2 | 11.9
COc1c(Cl)c(Nc2ccc3[nH]ncc3c2)nc(NC(C)C)c1Cl | 55.8
Cc1ccc(S(=O)(=O)N(C)c2ccccc2)s1 | 0.808
CC(CO)Oc1cc(-n2nc3c(c2Cl)CCCC3)c(F)cc1Cl (stereo not drawn) | 25.6
O=C(Nc1cccc(F)c1)C1CC(=O)N(Cc2ccccn2)c2nc3ccccc3n21 (stereo not drawn) | 51.6
Cc1cc(NC(C)c2cc(C)n(C)n2)cc(C)c1Cl (stereo not drawn) | 13.7

Study 2 — cell line: normal organoid sample E; method: CellTiter-Glo; host: human; sample: normal-adjacent epithelium; concentration: 1 µM; baseline: DMSO
Compound | viability
CC(=O)c1c(NS(C)(=O)=O)c2cc(-c3ccc(Cl)cc3)c(-c3ccc(Cl)cc3Cl)nc2n(C)c1=O | 83.7% and 95.3%
CN([C@@H]1CCc2c(CC(=O)O)c3ccccc3n2C1)S(=O)(=O)c1ccc(F)cc1 | 125% and 120%
CO[C@@H](C)c1c(Nc2ccc([C@@H](N(C)C(=O)C3CCS(=O)(=O)CC3)C(F)(F)F)cc2)cnc2cc(Cl)nn12 | 138% and 120%
O=C(NS(=O)(=O)c1ccc(NCC2CCOCC2)c([N+](=O)[O-])c1)c1ccc(N2CCN(Cc3ccc(C(F)(F)F)cc3-c3ccc(Cl)cc3)CC2)cc1Oc1cnc2[nH]ccc2c1 | 94.8% and 119%
CC(=O)C1=C(C)N(c2cccc(C(F)(F)F)c2)C(=O)N[C@@H]1c1ccc(C#N)nc1 | 117% and 112%
Cc1c(C(=O)O)cc(-c2ccc(C3CCNCC3)cc2)c2ccc(-c3ccc(C(F)(F)F)cc3)cc12 | 120% and 98.2%
C[C@H](NC(=O)Nc1cc2[nH]ncc2c(CO)n1)c1ccccn1 | 126% and 122%
Cc1nc(N2CC[C@@H](O)C2)ncc1-c1cc(C(F)(F)F)cc2[nH]ncc12 | 103% and 99.3%
Cc1ccc2[nH]c(CNCCCc3ccncc3)cc(=O)c2c1 | 109% and 95.8%
CN(C)CC#Cc1ccc(OCCCc2sc(N3CCc4cccc(C(=O)Nc5nc6ccccc6s5)c4C3)nc2C(=O)O)c(F)c1 | 47.2% and 65.5%
Cc1ccc2nc(CNCCCOc3ccccc3)cc(O)c2c1 | 117%
c1ccc(N2CCN(Cc3nc4ccccc4[nH]3)CC2)nc1 | 140% and 129%

Study 3 — sample: plasma; route: oral
SMILES: COc1ccc(-c2c(Nc3ccccn3)[nH]c3c(C4=CCCCC4)c(-c4ccccc4)nn3c2=O)cc1
method | host | dose | time | notes | plasma concentration, geometric mean [ng/mL]
LC-MS/MS | human | 50 mg once daily | 0.5 h | cycle 1 | 1070
 | cancer patients | 50 mg | 72 h post-dose | single dose | 27.9
 | human patients | 200 mg once daily | 4 h | cycle 1 | 4840
LC-MS/MS | human | 200 mg twice daily | 8 h | single dose | 1280
 | cancer patients | 200 mg | 6 h post-dose | single dose | 1270
 | cancer patients | 400 mg | 3 h post-dose | single dose | 915
 | human patients | 150 mg once daily | 0.5 h | cycle 1 | 3190
 | cancer patients | 100 mg | 72 h post-dose | single dose | 151
 | cancer patients | 400 mg | 4 h post-dose | single dose | 1140
 | cancer patients | 150 mg | 6 h post-dose | single dose | 1230
 | human patients | 200 mg once daily | 24 h | cycle 1 | 3780
LC-MS/MS | human | 50 mg once daily | 4 h | cycle 1 | 1540

Study 4 — cell line: mouse MPNST tumor cells; method: high-content immunofluorescence imaging; measured: nuclear SOX9; concentration: 10 µM; time: 12 h; notes: mean of 2 replicates; baseline: DMSO control; reading: higher = more nuclear SOX9
SMILES | nuclear SOX9 intensity
CC(=O)Nc1nc2c(Oc3cc(-c4ccc(C(F)(F)F)cc4)ncn3)cccc2s1 | 92 % of DMSO
CC1CCc2cc(F)cc3c(=O)c(C(=O)O)cn1c23 (stereo not drawn) | 95.8 % of DMSO
CCCNC(C)(C)COC(=O)c1ccccc1 | 102 % of DMSO
CCCCCN(C)CCC(O)(P(=O)(O)O)P(=O)(O)O | 108 % of DMSO
Clc1ccc(C(Cn2ccnc2)OCc2csc3c(Cl)cccc23)c(Cl)c1 (stereo not drawn) | 147 % of DMSO
CCN1CCCC(OC(=O)C(c2ccccc2)c2ccccc2)C1 (stereo not drawn) | 132 % of DMSO
Cn1c(NCCN(CCO)CCCc2ccc([N+](=O)[O-])cc2)cc(=O)n(C)c1=O | 90.4 % of DMSO
COc1cc(C(=O)OCCCN2CCCN(CCCOC(=O)c3cc(OC)c(OC)c(OC)c3)CC2)cc(OC)c1OC | 247 % of DMSO
COC1(C2=NCCN2)COc2ccccc2O1 (stereo not drawn) | 97 % of DMSO
CCC(=O)OCC(=O)[C@@]1(OC(=O)CC)[C@@H](C)C[C@H]2[C@@H]3CCC4=CC(=O)C=C[C@]4(C)[C@@]3(Cl)[C@@H](O)C[C@@]21C | 93 % of DMSO
Cc1nccn1CC1CCc2c(c3ccccc3n2C)C1=O (stereo not drawn) | 98.4 % of DMSO
